Assay results pooled from the literature.
Numbered parts are unrelated; each lists some results of a single study.

Block 1 — technique: protein binding microarray; form: double-stranded DNA, one strand shown; matrix: in vitro; tested at: not given; reference: not given; direction: higher = stronger binding
Target: Histone acetyltransferase KAT6A, both winged helices, GST fusion (KAT6A, Homo sapiens, UniProt Q92794, residues 1-181)
Notes: 8-mer, flanks averaged, mean of 2 arrays, mostly near background
Construct (chain): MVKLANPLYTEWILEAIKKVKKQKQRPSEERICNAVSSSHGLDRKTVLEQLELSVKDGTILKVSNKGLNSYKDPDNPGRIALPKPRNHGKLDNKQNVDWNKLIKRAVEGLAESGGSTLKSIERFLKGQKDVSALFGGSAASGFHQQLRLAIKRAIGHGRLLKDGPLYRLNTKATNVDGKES
`GCGGGCTA` gave an E-score of 0.187.
The E-score of `GACGAGCA` is reported as -0.113.
For `ACACCAAG`, the E-score was -0.14.
`GTTGAGAA` has an E-score of -0.073.
The E-score of `CGCGTCCA` is reported as 0.34.
`GCTTTGGA` has an E-score of 0.0447.
For `CTGTTATC`, the E-score was -0.138.
With `AGAGGTTG` the E-score was -0.156.
`AAAATTTA` has an E-score of -0.0356.
The E-score of `AAAACTAC` is reported as 0.0569.
`CCTGGTTC` gave an E-score of -0.077.
For `GCTTCTGA`, the E-score was 0.016.
`AAAGCCCA` gave an E-score of -0.0915.
For `CATTGTTC`, the E-score was -0.0102.
For `GAGTACCA`, the E-score was -0.0862.
For `CTGGGAGC`, the E-score was 0.00982.
The E-score of `CCTAATCA` is reported as -0.237.
With `CAGATTAG` the E-score was -0.179.

Block 2 — technique: protein-binding microarray; form: double-stranded DNA, one strand shown; matrix: in vitro; tested at: 2200 nM top; notes: 60-bp whole probe; together with: salmon DNA 0.4 mg/ml; reference: random background probes; direction: higher = stronger binding; constant ends, left off below: GCCTAGCAC … GTCTTGATTCGCTTGACGCTGCTG
Target: Interferon regulatory factor 7, full length, phosphomimetic (IRF7, Homo sapiens, UniProt Q92985, residues 1-503, S471D/S472D/S475D/S476D/S477D/S483D/S484D/S487D)
Residues (chain): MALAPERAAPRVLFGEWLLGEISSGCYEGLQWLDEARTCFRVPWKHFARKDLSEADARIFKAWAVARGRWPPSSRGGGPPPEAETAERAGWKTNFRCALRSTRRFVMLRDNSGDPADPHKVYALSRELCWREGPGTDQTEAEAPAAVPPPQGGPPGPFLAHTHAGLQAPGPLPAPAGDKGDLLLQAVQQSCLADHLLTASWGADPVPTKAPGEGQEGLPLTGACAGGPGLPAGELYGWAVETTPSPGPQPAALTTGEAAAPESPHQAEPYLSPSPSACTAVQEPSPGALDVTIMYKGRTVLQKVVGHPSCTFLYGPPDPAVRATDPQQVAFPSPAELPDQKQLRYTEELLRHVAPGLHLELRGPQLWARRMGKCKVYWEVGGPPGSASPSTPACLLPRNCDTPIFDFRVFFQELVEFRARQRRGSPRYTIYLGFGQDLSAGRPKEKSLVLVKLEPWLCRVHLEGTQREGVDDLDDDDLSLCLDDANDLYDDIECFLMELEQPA
For `TTCGGTTTCCTTCTCCTTTAGTGCTAG`, “fitted relative affinity” read 4.91 z-score.
`TCACCTCTAGACTCTAAAACTGTGCTA`: “fitted relative affinity” 0.812 z-score.
`TTAGGTCTCGGCCTCGGTTAGTGCTAG`: “fitted relative affinity” 0.0303 z-score.
For `TTTACTTTCTGAATGCCCTTGTGCTAG`, “fitted relative affinity” read 6.01 z-score.
`TCACCTCTCCATACTTCACTGTGCTAG` — result for “fitted relative affinity”: 2.12 z-score.
`TTAGGACTGGACACTGGGCTAGTGCTA`: “fitted relative affinity” -0.952 z-score.
`TCATACCTCATCTTTCCCACTGTGCTA`: “fitted relative affinity” 2.19 z-score.
`TTAGGCCTCCTACTGCTTTAGTGCTAG`: “fitted relative affinity” 0.579 z-score.
For `TTAGGTCTCCTTACCCTTTAGTGCTAG`, “fitted relative affinity” read 0.783 z-score.
Under “fitted relative affinity”, `TTAGGTATCGGGACTGGGTGAGTGCTA` is recorded as -0.456 z-score.
`GACGGTCTCGGTTACGGGACGTGCTAG` — result for “fitted relative affinity”: -0.0641 z-score.
`GTAGGTTTCGGTCTCGGTTAGTGCTAG`: “fitted relative affinity” 6.41 z-score.
`TCAAAATTGTCTCTGTCACTGTGCTAG`: “fitted relative affinity” 0.227 z-score.
For `GCAACACTCACCATGGCTAGGTGCTAG`, “fitted relative affinity” read 0.638 z-score.
Under “fitted relative affinity”, `GACGATCTCATTCTCGAGACGTGCTAG` is recorded as 0.81 z-score.
`TTAGATATCGGGTATAGATTAGTGCTA`: “fitted relative affinity” -0.121 z-score.
`GACGGTTTCGACACTGTGGACGTGCTA` — result for “fitted relative affinity”: 2.64 z-score.
Under “fitted relative affinity”, `TCATATGTGACCTTTTTAACTGTGCTA` is recorded as 0.883 z-score.
`GACGGTATCTTTTTCCTGACGTGCTAG` — result for “fitted relative affinity”: 0.962 z-score.
`GCCGGTATCGACTATCGGGACGTGCTA`: “fitted relative affinity” 0.0917 z-score.
Under “fitted relative affinity”, `TCGTGGATTGCGACCCCTAGGTGCTAG` is recorded as 0.125 z-score.
For `TTGGATCTCAGTATCGATTAGTGCTAG`, “fitted relative affinity” read 0.62 z-score.

Block 3 — technique: RNA Bind-n-Seq; form: RNA; matrix: in vitro; tested at: 365 nM; reference: no-protein control; direction: higher = stronger binding
Target: RNA binding protein fox-1 homolog 2, RRM domain, GST-SBP tag (RBFOX2, Homo sapiens, UniProt O43251-10, residues 100-194)
Notes: natural RNA segment, single round, ends assumed
Constant ends, left off below: GGGAGUUCUACAGUCCGACGAUC … UGGAAUUCUCGGGUGCCAA
Construct (chain): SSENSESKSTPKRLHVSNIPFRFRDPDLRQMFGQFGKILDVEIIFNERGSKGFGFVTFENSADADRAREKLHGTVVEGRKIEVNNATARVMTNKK
For `CCUGGCACUGCUUGGAGGUGUGCAGAGCGGAAGCAAGUGGAGCAUCCGGGGCAUUCCUGUUGACCCAUCAGCCCCUUCUGUUCUGGCGGCAGGGGCCUUGGGGCUCCUGG`, “RBNS enrichment (R)” read 0.505.
Under “RBNS enrichment (R)”, `GUAUCUUUACUUGAAAGUUGGGAGUCCUUGUUUAAUUUAGGUCUGUCUUCUUGUGUGACUGUUUCUGUAUGAAGUAUAAAAAUUUGUGUGCCUUGAGCAAGUCUCAUUUU` is recorded as 0.929.
`GGUACACAUUAGAGUGUCUUUGAGUUCAACAAGUUGGUACUGUUGCAAACACCUUCUGAAUUGCCAGCGCCCGGGUUUUUAUGUAAAAAUAGAGUGGCUAUGGAAGUUAC` — result for “RBNS enrichment (R)”: 0.828.
Under “RBNS enrichment (R)”, `GGACUCCUGGGUUAGCAUCAAGACGGCUGCCUGCUGAGGGGCGCUUUCCUUCUGACUCUGUUUGGAUUGAGGGGAAGUCCGUCUUGCUGAUGAUGGUGACCGUGAAAGUG` is recorded as 0.583.
`CAAAGGGCAACUGGCCUUCUGACCCACUAGAGCCUUGCAAAGAGUUGGCAGUCAGGGGGGUGUCAUACAUGAUUCUUGCCUUUUCCUUUGCUUGAUGUCUAUACUGGAUC` — result for “RBNS enrichment (R)”: 1.07.
Under “RBNS enrichment (R)”, `AAAAGAAUUCUUGUUUUAGCACAGUUGAUGCACAUAAGUGAUUCUCAUAUUUGUUGUAUAAACUGGUUUAAUACAUUUGGAACAUAGUUGGAUUACAUUCAUUUCCUGGG` is recorded as 0.216.
Under “RBNS enrichment (R)”, `UAAUCAGUAUCAUUUCUACACCAAAAUAUUGUUUUUUUCCCUCACUAAAGACAAUAUAAAGAAAAAUAAUCUAAGAAGAUAAAGGGGCUUUCUGCUUAAAGAUAUGUAGA` is recorded as 0.452.
For `UUUUAAAGAUAAAACUUUACAACCUGCACAUUUGUUAUGCAUACUAAAUGGUGUGUUAAAAUUAGGGUUUCUUUGCCUCUCUACACUACACUAAUCUGCCUAAAGGUGGU`, “RBNS enrichment (R)” read 0.863.
`CCUCCUUGAGACACAGAUGCCUGUGUGAGUCUCCGUUGAUACAAUUCUGAACCCCUCAGGUUCUCUGAAAGGGCACAGACCAUGGGCGUGAACAUUGUGCCGUACCUGAG` — result for “RBNS enrichment (R)”: 4.61.
For `UGAUGCCCUCUUCUGGCAUGCAGGCAGAAUACUAUAUAUAGUAAGUAAAUCGUAAAGAGAAAGGAAUUUAAGGGGUUGGAGAGAUGACUCAGUGGCUAAGAGAAUUGGCU`, “RBNS enrichment (R)” read 3.22.
`GAGGAAAGAUAAGCUCUUCGUGGUGCCCACGAUGCUCAGGUUUGGUAACCCGGGAGUGUUCCCAGGUGGCCUUAGAAAGCAAAGCUUGUAACUGGCAAGGGAUGAUGUCA` — result for “RBNS enrichment (R)”: 0.772.
For `CAGCAUGGAGCCCUCGGCUCCCCAGACUUUGCCGAGGGGCUGCUCCGGACCCCGUUGUGAGCCGGCCUCCUGUCUGCAUGCCCCCUGUGGCCACCAGGCUCCGAGGGGCC`, “RBNS enrichment (R)” read 2.93.

Block 4 — technique: universal PBM; form: double-stranded DNA, one strand shown; matrix: in vitro; tested at: 600 nM; direction: higher = stronger binding
Target: Sal-like protein 4, full length isoform A (SALL4, Homo sapiens, UniProt Q9UJQ4, residues 1-1053)
UniProt Q9UJQ4, sequence (whole entry, looked up): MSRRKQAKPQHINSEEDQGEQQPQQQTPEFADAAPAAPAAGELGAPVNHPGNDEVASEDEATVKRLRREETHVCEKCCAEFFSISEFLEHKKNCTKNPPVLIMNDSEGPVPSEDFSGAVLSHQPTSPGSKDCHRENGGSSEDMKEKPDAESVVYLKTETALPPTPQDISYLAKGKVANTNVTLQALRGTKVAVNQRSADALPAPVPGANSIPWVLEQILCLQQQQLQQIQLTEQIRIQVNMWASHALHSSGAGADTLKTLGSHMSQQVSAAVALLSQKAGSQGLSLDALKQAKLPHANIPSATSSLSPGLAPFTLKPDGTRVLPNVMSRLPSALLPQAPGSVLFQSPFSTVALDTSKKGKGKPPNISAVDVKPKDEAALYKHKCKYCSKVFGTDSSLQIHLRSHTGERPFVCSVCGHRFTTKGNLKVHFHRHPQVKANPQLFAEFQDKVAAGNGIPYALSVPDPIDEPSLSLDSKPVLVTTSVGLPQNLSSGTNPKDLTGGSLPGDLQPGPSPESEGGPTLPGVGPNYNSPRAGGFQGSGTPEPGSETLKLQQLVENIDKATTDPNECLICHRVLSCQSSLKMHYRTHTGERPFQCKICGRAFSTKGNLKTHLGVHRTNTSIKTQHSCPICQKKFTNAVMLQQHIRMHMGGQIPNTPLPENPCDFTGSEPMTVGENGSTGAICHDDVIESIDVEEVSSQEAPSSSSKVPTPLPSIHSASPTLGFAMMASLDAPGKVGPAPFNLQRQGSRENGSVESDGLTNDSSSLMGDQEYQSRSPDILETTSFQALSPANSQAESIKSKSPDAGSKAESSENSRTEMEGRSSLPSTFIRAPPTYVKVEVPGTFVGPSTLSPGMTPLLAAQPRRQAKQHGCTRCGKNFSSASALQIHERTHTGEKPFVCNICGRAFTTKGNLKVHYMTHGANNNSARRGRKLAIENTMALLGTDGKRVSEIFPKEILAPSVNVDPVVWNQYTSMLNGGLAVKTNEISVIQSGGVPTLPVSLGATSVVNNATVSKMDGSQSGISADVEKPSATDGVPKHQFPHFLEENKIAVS
Notes: 8-mer, flanks averaged, mean of replicates
The E-score of `CGAATACG` is reported as 0.0113.
`AAGGTGCT` gave an E-score of -0.0679.
The E-score of `CACACTGG` is reported as -0.257.
`CTATTTAA` has an E-score of 0.255.
`TCACTTCA` gave an E-score of 0.0297.
`ATTGTAGG` gave an E-score of 0.285.
With `CATCGGTA` the E-score was 0.0593.
With `AATTCTAC` the E-score was 0.183.
With `ACGCAAAG` the E-score was 0.00186.
With `GCTACGTA` the E-score was 0.0337.
For `AAGACTGC`, the E-score was -0.165.
With `TACATTCA` the E-score was 0.267.
`CAATAGCA` gave an E-score of 0.0728.
`AGCTAAGG` gave an E-score of -0.155.
For `TAAGTAAA`, the E-score was 0.284.
The E-score of `GGGCCCAC` is reported as -0.356.
The E-score of `GACGATCA` is reported as -0.0546.
For `ACTCAGTA`, the E-score was 0.0363.
For `CGAGTAGA`, the E-score was -0.116.
With `ACGAGCAA` the E-score was -0.0825.
The E-score of `GATCGGAC` is reported as -0.0935.
`CTAGTCGA` has an E-score of -0.0087.
For `ACGGGACT`, the E-score was -0.24.

Block 5 — technique: aptamer microarray, sandwich; form: DNA with 2'F-ANA; matrix: in vitro; tested at: 200 nM; together with: Cy3 exosite-II aptamer, 400 nM; direction: higher = stronger binding; sequence: GGTTGGTGTGGTTGG
Target: Prothrombin, mature alpha-thrombin (F2, Homo sapiens, UniProt P00734)
Notes: whole 15-mer aptamer, many near background
For `2'F-ANA at 1 3 4 6 8 11`, “mean fluorescence intensity” read 184 a.u.
`2'F-ANA at 2 3 4 5 7 8 9`: “mean fluorescence intensity” 117 a.u.
`2'F-ANA at 1 2 5 6 7 8 9 11 13`: “mean fluorescence intensity” 52.3 a.u.
`2'F-ANA at 2 4 5 6 8 13 14 15` — result for “mean fluorescence intensity”: 47.7 a.u.
`2'F-ANA at 1 3 4 8 9 10 11 12 14`: “mean fluorescence intensity” 52.9 a.u.
For `2'F-ANA at 6 7 8 9 10 13`, “mean fluorescence intensity” read 148 a.u.
Under “mean fluorescence intensity”, `2'F-ANA at 2 5 6 8 11 13 15` is recorded as 57.8 a.u.
For `2'F-ANA at 2 3 4 5 6 9 10 11 12 13 14 15`, “mean fluorescence intensity” read 61.7 a.u.
For `2'F-ANA at 3 6 7 10 12 14`, “mean fluorescence intensity” read 466 a.u.
Under “mean fluorescence intensity”, `2'F-ANA at 1 3 4 5 7 10 12 15` is recorded as 57.2 a.u.
`2'F-ANA at 1 3 6 10 11 12`: “mean fluorescence intensity” 99.8 a.u.
For `2'F-ANA at 3 5 6 7 8 9 10 14 15`, “mean fluorescence intensity” read 50.2 a.u.
Under “mean fluorescence intensity”, `2'F-ANA at 4 6 8 10 13` is recorded as 65.3 a.u.
`2'F-ANA at 1 8 9 10 11 13 15` — result for “mean fluorescence intensity”: 56.8 a.u.
`2'F-ANA at 2 3 4 6 8 9 11 12 13 15`: “mean fluorescence intensity” 491 a.u.
For `2'F-ANA at 1 4 5 6 9 12 14`, “mean fluorescence intensity” read 105 a.u.
`2'F-ANA at 2 6 9 12 13` — result for “mean fluorescence intensity”: 497 a.u.
For `2'F-ANA at 3 6 9 10 11 14`, “mean fluorescence intensity” read 391 a.u.
`2'F-ANA at 3 5 6 7 10 11 12 14 15` — result for “mean fluorescence intensity”: 53.1 a.u.
`2'F-ANA at 1 3 4 6 7 9 12 14 15` — result for “mean fluorescence intensity”: 71.7 a.u.
`2'F-ANA at 1 2 3 6 7 8 9 11 12 14 15` — result for “mean fluorescence intensity”: 81 a.u.
Under “mean fluorescence intensity”, `2'F-ANA at 1 2 4 9 10 11 14 15` is recorded as 45.1 a.u.
For `2'F-ANA at 1 2 4 6 9 14`, “mean fluorescence intensity” read 49.2 a.u.
